# Measurements gathered from unrelated publications.
# Lines come from different studies, so protocols differ. Numbers after ± are the reported error. The star is where a group is joined.
# B1: UGT1A9 (Homo sapiens, UniProt O60656); chain GKLLVVPMDGSHWFTMRSVVEKLILRGHEVVVVMPEVSWQLGRSLNCTVKTYSTSYTLEDLDREFKAFAHAQWKAQVRSIYSLLMGSYNDIFDLFFSNCRSLFKDKKLVEYLKESSFDAVFLDPFDNCGLIVAKYFSLPSVVFARGILCHYLEEGAQCPAPLSYVPRILLGFSDAMTFKERVRNHIMHLEEHLLCHRFFKNALEIASEILQTPVTEYDLYSHTSIWLLRTDFVLDYPKPVMPNMIFIGGINCHQGKPLPMEFEAYINASGEHGIVVFSLGSMVSEIPEKKAMAIADALGKIPQTVLWRYTGTRPSNLANNTILVKWLPQNDLLGHPMTRAFITHAGSHGVYESICNGVPMVMMPLFGDQMDNAKRMETKGAGVTLNVLEMTSEDLENALKAVINDKSYKENIMRLSSLHKDRPVEPLDLAVFWVEFVMRHKGAPHLRPAAHDLTWYQYHSLDVIGFLLAVVLTVAFITFKCCAYGYRKCLGKKGRVKKAHKSKTH
# UniProt P38999, sequence (whole entry, unmodified, looked up): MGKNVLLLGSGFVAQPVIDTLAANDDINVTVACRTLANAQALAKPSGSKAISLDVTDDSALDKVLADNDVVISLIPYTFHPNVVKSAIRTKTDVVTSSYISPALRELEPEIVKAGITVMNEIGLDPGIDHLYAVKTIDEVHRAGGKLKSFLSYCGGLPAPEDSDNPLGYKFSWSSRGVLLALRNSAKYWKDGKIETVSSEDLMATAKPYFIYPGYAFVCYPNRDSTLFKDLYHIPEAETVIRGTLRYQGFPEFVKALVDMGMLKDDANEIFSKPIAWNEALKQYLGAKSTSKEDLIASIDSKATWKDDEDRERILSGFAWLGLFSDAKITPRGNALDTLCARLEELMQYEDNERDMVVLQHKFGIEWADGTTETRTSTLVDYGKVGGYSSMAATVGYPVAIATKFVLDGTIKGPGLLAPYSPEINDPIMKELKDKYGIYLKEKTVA
# UniProt P12081, sequence (whole entry, unmodified, looked up): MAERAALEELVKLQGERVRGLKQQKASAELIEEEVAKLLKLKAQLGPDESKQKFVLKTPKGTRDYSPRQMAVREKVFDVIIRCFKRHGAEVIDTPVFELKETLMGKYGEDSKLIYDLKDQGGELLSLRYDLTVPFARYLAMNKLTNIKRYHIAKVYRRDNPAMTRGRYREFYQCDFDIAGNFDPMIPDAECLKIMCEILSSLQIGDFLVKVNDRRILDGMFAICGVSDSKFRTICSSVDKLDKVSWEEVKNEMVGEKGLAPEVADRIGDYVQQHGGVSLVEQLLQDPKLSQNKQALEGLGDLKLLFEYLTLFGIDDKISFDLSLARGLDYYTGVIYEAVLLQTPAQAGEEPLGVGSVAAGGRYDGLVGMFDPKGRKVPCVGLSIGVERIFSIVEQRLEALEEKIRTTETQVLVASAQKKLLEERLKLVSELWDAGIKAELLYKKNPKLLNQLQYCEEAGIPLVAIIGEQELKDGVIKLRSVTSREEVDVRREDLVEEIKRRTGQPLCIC
# UniProt P05852, sequence (whole entry, looked up): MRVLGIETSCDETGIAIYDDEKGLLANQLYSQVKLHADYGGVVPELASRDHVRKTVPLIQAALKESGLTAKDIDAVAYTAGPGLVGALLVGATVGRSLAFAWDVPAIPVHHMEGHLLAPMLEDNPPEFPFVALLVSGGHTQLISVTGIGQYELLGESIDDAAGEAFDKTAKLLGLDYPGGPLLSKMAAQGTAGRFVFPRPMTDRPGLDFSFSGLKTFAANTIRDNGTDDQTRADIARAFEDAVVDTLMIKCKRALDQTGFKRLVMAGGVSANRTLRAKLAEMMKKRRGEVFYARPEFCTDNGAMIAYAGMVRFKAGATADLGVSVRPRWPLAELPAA
# UniProt P39458, sequence (whole entry, looked up): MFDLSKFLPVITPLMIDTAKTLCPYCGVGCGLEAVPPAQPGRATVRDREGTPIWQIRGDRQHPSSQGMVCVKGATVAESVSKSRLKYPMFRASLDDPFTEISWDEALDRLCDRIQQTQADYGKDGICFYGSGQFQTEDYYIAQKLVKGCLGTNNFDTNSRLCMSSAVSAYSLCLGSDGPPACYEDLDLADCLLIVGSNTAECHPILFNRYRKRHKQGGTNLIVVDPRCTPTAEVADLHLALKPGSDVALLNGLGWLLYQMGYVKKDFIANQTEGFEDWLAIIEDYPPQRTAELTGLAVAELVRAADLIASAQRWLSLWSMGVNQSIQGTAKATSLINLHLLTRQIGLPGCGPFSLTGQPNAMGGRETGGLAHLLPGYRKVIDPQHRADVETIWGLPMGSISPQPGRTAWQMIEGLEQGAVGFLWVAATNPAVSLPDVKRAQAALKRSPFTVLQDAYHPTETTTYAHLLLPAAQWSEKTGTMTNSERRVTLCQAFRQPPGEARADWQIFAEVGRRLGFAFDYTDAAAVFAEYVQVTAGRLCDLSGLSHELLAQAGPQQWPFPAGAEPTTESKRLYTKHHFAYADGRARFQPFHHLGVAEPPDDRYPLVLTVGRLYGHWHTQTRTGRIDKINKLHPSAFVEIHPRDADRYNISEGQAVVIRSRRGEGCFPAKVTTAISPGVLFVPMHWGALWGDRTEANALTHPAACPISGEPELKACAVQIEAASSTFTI
# UniProt P55212, sequence (whole entry, looked up): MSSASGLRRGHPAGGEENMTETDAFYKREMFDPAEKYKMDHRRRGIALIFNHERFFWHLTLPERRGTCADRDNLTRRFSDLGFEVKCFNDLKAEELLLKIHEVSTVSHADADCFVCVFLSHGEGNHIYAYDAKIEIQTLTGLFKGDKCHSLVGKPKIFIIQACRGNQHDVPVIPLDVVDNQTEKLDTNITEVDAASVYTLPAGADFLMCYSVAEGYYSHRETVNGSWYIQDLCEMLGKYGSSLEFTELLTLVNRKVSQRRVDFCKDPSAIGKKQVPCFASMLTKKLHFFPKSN
Substance,tested on,test,conditions,measurement,result
"Ac-QDEVD-pNA (N-acetyl, C-pNA; pNA = O=[N+]([O-])c1ccc(N*)cc1)","Caspase-6 (CASP6, Homo sapiens, UniProt P55212)","substrate, colorimetric p-nitroanilide release",pH 7.25,Km,1070 ± 110 µM
O=[N+]([O-])O,"Nitrate reductase (narB, Synechococcus elongatus, UniProt P39458)",substrate,"together with: reduced Synechocystis ferredoxin, saturating",Km,6 ± 1 µM
B1 (UGT1A9),COc1ccc(-c2coc3cc(O)ccc3c2=O)cc1,steady-state kinetics,"pH 7.4, 37 °C",Vmax,0.000139 µmol/min/mg
N[C@@H](CCC(=O)O)C(=O)O,"Saccharopine dehydrogenase [NADP(+), L-glutamate-forming], D126A (LYS9, Saccharomyces cerevisiae, UniProt P38999)","enzyme activity, substrate","pH 7.0, 25 °C, D126A mutant, together with: NADPH and AASA saturating",Km,1500 ± 100 µM
O=C(Nc1ccc2c(O)c(N=Nc3ccc(N=Nc4ccc(S(=O)(=O)O)cc4)cc3S(=O)(=O)O)c(S(=O)(=O)O)cc2c1)Nc1ccc2c(O)c(N=Nc3ccc(N=Nc4ccc(S(=O)(=O)O)cc4)cc3S(=O)(=O)O)c(S(=O)(=O)O)cc2c1,ancestral dye-decolorizing peroxidase,"peroxidase activity, substrate, steady-state kinetics","25 °C, pH 3.0 ABTS, 4.0 others",Km,2.9 µM
Nc1ncnc2c1ncn2[C@@H]1O[C@H](COP(=O)(O)OP(=O)(O)OP(=O)(O)O)[C@@H](O)[C@H]1O,"kinesin-II homo-11, Caenorhabditis elegans","microtubule gliding velocity, substrate",,Km,51 µM
C/C1=C2/N[C@H]([C@H](CC(N)=O)[C@@]2(C)CCC(=O)NC[C@@H](C)OP(=O)(O)O[C@H]2[C@@H](O)[C@@H](n3cnc4cc(C)c(C)cc43)O[C@@H]2CO)[C@]2(C)N=C(/C(C)=C3N=C(/C=C4N=C1[C@@H](CCC(N)=O)C\4(C)C)[C@@H](CCC(N)=O)[C@]\3(C)CC(N)=O)[C@@H](CCC(N)=O)[C@]2(C)CC(N)=O.[Co],"meaD (Methylorubrum extorquens, UniProt C5AZG1)",substrate,together with: ATP 1 mM,Km,0.4 ± 0.1 µM
Nc1c(S(=O)(=O)O)cc(Nc2cccc(S(=O)(=O)CCOS(=O)(=O)O)c2)c2c1C(=O)c1ccccc1C2=O,ancestral dye-decolorizing peroxidase,"peroxidase activity, substrate, steady-state kinetics","25 °C, pH 3.0 ABTS, 4.0 others",Km,42 µM
CC(=O)OCOc1ccc2c(c1)Oc1cc(OCOC(C)=O)ccc1C21OC(=O)c2ccccc21,porcine liver esterase,"substrate, fluorogenic hydrolysis","pH 7.4, 23 °C, DMSO up to 1.5%",Km,3.2 µM
N[C@@H](Cc1c[nH]cn1)C(=O)O,"HARS1 (Homo sapiens, UniProt P12081, V155G)",substrate,"pH 7.5, together with: 10 mM ATP, 5 µM tRNAHis",Km,687 ± 200 µM
isocitrate,"Isocitrate dehydrogenase (Acetivibrio thermocellus, UniProt A3DC45)",substrate,"pH 8.0, 25 °C, together with: NADP+ saturating",Km,10 µM
CC(=O)OCOc1cc2c(cc1F)C1(OC(=O)c3ccccc31)c1cc(F)c(OCOC(C)=O)cc1O2,porcine liver esterase,"substrate, fluorogenic hydrolysis","pH 7.4, 23 °C, DMSO up to 1.5%",Km,4.9 µM
OO,ancestral DyP peroxidase R390K,"peroxidase activity, substrate","pH 3.0, 25 °C, together with: ABTS 25 µM",Km,31 µM
Nc1ncnc2c1ncn2[C@@H]1O[C@H](COP(=O)(O)OP(=O)(O)OP(=O)(O)O)[C@@H](O)[C@H]1O,"tsaD, with TsaB and TsaE (Escherichia coli, UniProt P05852)",substrate,together with: TC-AMP,Km,14 µM
